Literature values, collected from citations in different studies.
Protocols differ between the studies behind these lines. Numbers after ± are the reported error.

C=CC(O)c1ccc(OC)cc1 (centres unmarked)
catalytic efficiency (male rat, lung microsomes): 18 mL/h/g liver

CCC1C=CC2CCN(C(=O)C3CCC4C=CC5(CCCN5C(=O)C(Cc5ccccc5Cl)NC(C)=O)C(=O)N43)C2C(=O)N1CC(=O)OC (centres unmarked)
effective concentration (cancer cell extravasation; MDA-MB-231, transgenic zebrafish; concentration reducing extravasation): 1 µM

C=CC(OS(=O)(=O)O)c1ccc(OC)cc1 (centres unmarked)
scaled Vmax (male rat, liver; sulfonation): 0.2 µmol/h/g liver

CC#N.Cc1ccc(O)c(CN(CCN(Cc2ccccn2)Cc2ccccn2)Cc2ccccn2)c1.[Mn+2]
activation enthalpy (concentration not given, pH 4.8, water exchange): 6.31 kcal/mol

NC(=O)C1(NC(=O)[C@H](Cc2ccccc2)NC(=O)[C@@H](Cc2c[nH]c3ccccc23)NC(=O)[C@@H](Cc2csc3ccccc23)NC(=O)C2CCNCC2)CCNCC1
gastric emptying rate (normal primates; dose not given): increased

CCC=CCC=CCC=CCC=CCC=CCC=CCCC(=O)OCC(O)COP(=O)([O-])OCC[N+](C)(C)C (centres unmarked)
brain DHA level increase (refers to: docosahexaenoic acid; normal adult mice; dietary, dose not given; baseline: untreated): > 2 fold

CNC(=O)c1ccc(N2C(=S)N(c3ccc(C#N)c(C(F)(F)F)c3)C(=O)C2(C)C)cc1F
activity (human, metastatic castration-resistant prostate cancer; dose not given): active

Cn1c2cc([S+](C)[O-])sc2c2cnn(Cc3cccc(N)c3)c(=O)c21 (centres unmarked)
TUNEL-positive cells (rd10 retinal explants ex vivo; concentration not given, outer nuclear layer): decreased

C[n+]1cn([C@@H]2O[C@H](COP(=O)(O)OP(=O)([O-])OP(=O)(O)OP(=O)(O)OC[C@H]3O[C@@H](n4cnc5c(=O)[nH]c(N)nc54)[C@H](O)[C@@H]3O)[C@@H](O)[C@H]2O)c2nc(N)nc(O)c21
IC50 (cap-dependent translation, inhibitor; rabbit reticulocyte lysate; preincubated 60 min in lysate): > 20000 nM

CC1=CCC23OC2(C)CCC2C(CN(C)C)C(=O)OC2C13.Cl (centres unmarked)
tumour growth inhibition (Ehrlich solid tumour model; ip and intratumoural, dose not given): 86 to 90%

Oc1ccc(O)c(CN(CCN(Cc2ccccn2)Cc2cc(O)ccc2O)Cc2ccccn2)c1.[Br-].[Br-].[Mn+2]
activation enthalpy (concentration not given, pH 7.0, water exchange): 5.26 kcal/mol

CO[C@@H]1[C@H](O)[C@@H](COP(=O)([O-])OP(=O)(O)CP(=O)(O)OP(=O)(O)OC[C@H]2O[C@@H](n3cnc4c(=O)[nH]c(N)nc43)[C@H](O)[C@@H]2O)O[C@H]1n1c[n+](C)c2c(O)nc(N)nc21
IC50 (cap-dependent translation, inhibitor; rabbit reticulocyte lysate; preincubated 60 min in lysate): 2900 ± 300 nM

CC1=C(C2=C(C)C(=O)c3c(cc(O)c(O)c3Cc3ccccc3)C2=O)C(=O)c2cc(O)c(O)c(Cc3ccccc3)c2C1=O (racemic)
spleen size reduction (B6 Bcl-2-transgenic mouse; 30 µmol/kg): 43 ± 4%

O=C([O-])CN1CCN(CC(=O)[O-])CCN(Cc2cccc(C(=O)[O-])n2)CCN(CC(=O)[O-])CC1.[Eu+3]
dissociation rate constant (1 M HCl; 298 K, complex dissociation): 0.002 s⁻¹
